Assay results of several laboratories.
A part holds a random share of what one study measured. Substitutions count along the parent as printed.

Block 1 — technique: RNA Bind-n-Seq; molecule type: RNA; matrix: in vitro; concentration: not given; baseline: input RNA pool; direction: higher = stronger binding
Target: RING finger protein unkempt homolog, zinc fingers 1-6, GST-SBP tag (UNK, Homo sapiens, UniProt Q9C0B0, residues 30-357)
Sequence of UniProt Q9C0B0 (30-357, looked up): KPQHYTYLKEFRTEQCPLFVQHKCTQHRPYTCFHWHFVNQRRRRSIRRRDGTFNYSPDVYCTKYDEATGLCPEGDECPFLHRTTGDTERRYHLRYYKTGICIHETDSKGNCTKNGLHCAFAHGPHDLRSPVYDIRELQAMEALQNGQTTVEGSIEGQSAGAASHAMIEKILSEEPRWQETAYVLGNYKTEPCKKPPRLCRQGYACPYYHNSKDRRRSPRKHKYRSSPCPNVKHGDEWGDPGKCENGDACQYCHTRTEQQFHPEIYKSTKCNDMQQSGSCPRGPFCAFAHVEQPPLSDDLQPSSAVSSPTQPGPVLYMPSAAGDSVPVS
Setting: RNA with constant flanks, human and mouse sites, ends assumed
Sequence	bound/input enrichment [ratio]
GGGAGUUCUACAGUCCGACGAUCGACAAGUAUUUUGGCAGUGUAUGUGAACUUGAUAUCAUCUUUAAUUUUGAGAAGGCCUAUUUUAUUUUGGAUGAAUUUCUCUUGGGAGGAGAAGUUCAGGAAACAUCCAAGAAAAAUGUCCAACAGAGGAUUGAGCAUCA	0.256
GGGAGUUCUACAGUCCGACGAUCAUUGAGAACAGCUCUCCAAAUAGGAAUAGUAGUAAAAAAAAUAAGCAAAAUGAUAUUUGUAUAGAAAAAACAGAAGUUAAAUCAUGUAAAGUAAAUGCUGCCAACCUUCCAGGUCCUAAACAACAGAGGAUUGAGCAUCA	172
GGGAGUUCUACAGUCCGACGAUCUCCCCUACUAGUGACCUCAUGCUGGCCAGUGUUCUGUGGGACAGAGGAGGAUCAAGUUUCUACACCCUGACGAGUUCAAACAUCAGCAAAUGGGAACUGGACGAUUCUUCAGAGAAGCAGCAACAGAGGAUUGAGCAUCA	0.393
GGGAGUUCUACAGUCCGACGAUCAGCAGUCCAAUAUCAAGCAUAUCUGCAGAUUCUUUCUAUGCAGAUAUUGAUCACCAUACUCCACGAAAUUAUGUCCUAAUUGACGACAUUGGAGAGAUCACCAAAGGAACAGCGGCAUUACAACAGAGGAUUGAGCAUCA	0.269
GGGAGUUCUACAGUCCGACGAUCCUAAUCGUGUCAGCAGAAGCACUUACUAUGAAAUCAUUUUUUUAAAGAAAUCUGCACAGUAGAUUUUUACAUUGAGCUGAGAUGAAUAUGCCUUGAAAAUAAUAUAAGUGUGAAAUUGUUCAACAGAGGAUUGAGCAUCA	0.424
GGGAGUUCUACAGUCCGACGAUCUAAAUGCCCUGAGAAAAGCAUAAGAUUAAAAACAAUCCAUGGGCUAUUUGUGUUACUGCUAUAGAAAGGUUUUUUAAAAAGCUAUCUUUCAUAUUGAAUUUUUGAAUUCUUAAAAAGCCUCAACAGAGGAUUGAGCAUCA	0.365
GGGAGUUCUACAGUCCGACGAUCCUCACCUUCCUUCGAAUUCGCUCCAAGAAAAAUGAAAUUAUGGUUGCACCAGAUAAAGACUAUUUCCUGAUUGUGAUUCAGAAUCCAACCGAAUAAGCCACUCUCUUGGCUCCCUGUGUCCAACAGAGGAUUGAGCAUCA	0.228
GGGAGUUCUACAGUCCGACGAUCAUUAUUCCAUCGUUUGUGCUGAUGGACAUCCAGGCUUCUACUGUGGUCACUUACGUCUAUCAACUAAUUGGAGAUGACGUCAAAGUAGAACGAAUUGAGUAUAAAAAGUCGUAAAGCCAGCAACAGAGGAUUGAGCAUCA	0.225

Block 2 — technique: protein-binding microarray; molecule type: double-stranded DNA, one strand shown; matrix: in vitro; concentration: 2200 nM top; setting: 60-bp whole probe; with: salmon DNA 0.4 mg/ml; baseline: random background probes; direction: higher = stronger binding; all sequences stand within: GCCTAGCAC … GTCTTGATTCGCTTGACGCTGCTG
Target: Interferon regulatory factor 7, full length, phosphomimetic (IRF7, Homo sapiens, UniProt Q92985, residues 1-503, S471D/S472D/S475D/S476D/S477D/S483D/S484D/S487D)
Sequence of UniProt Q92985 (whole entry, unmodified, looked up): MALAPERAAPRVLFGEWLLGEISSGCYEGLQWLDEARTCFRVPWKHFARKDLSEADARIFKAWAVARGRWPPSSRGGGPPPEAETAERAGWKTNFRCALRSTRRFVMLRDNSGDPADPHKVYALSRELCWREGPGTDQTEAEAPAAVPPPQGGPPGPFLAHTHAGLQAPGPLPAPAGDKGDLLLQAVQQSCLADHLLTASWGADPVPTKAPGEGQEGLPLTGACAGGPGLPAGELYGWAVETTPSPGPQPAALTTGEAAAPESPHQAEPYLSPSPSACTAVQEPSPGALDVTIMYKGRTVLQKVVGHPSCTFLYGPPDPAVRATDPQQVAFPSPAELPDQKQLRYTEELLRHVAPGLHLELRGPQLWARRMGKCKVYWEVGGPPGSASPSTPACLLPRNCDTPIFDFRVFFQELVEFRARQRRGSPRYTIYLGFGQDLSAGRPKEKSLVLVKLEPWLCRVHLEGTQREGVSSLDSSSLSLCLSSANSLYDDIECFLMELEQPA
Sequence	fitted relative affinity [z-score]
TTAGATCTCATTTTCGATTAGTGCTAG	5.73
CCGAGAAACAGTAACCCTCTGTGCTAG	-0.0257
TTAGATATCGGGACTGGATCAGTGCTA	-0.176
TGTGGTCTGTTTCTGATATGGTGCTAG	1.36
GTAGAACTGAGTCTCGATTAGTGCTAG	0.109
TCACAAAAATGATTGGTACTGTGCTAG	-0.262
CCATACTTCCCACTGGTCTTGTGCTAG	1.61
GATGATTTCAGTATCGAGACGTGCTAG	0.742
TCAATTCTCAACCCTGGTACTGTGCTA	0.761
TGTGTTATTAAATTTTCACGGGTGCTA	0.405
TTAGGTATCGGACTGGGATAGTGCTAG	-0.123
GACGGTGTCCTTCTCCTGACGTGCTAG	0.556
GCAGGGCTCTCTTCTGCTTCCGTGCTA	-0.298

Block 3 — target: CCNB1, cyclin fold, Cln2 fusion (human); technique: yeast growth competition, sequencing; matrix: yeast; setting: weak parent motif; baseline: not given; direction: higher = stronger binding
Starting sequence: CDC25A docking peptide (human); PPHRRRLLFACSP
Change	normalised enrichment score
PPHRRRLWFACSP [L8W]	0.454
LPHRRRLLFACSP [P1L]	0.575
PPCRRRLLFACSP [H3C]	1.39
PPHRRRLLPACSP [F9P]	0.351
PPHRRRPLFACSP [L7P]	0.0208
PPHRRRSLFACSP [L7S]	0.164
PPRRRRLLFACSP [H3R]	0.864
PPHRRRLLFAPSP [C11P]	0.369
PPHRRRLLFMCSP [A10M]	0.716
PPHRRRLLFAMSP [C11M]	0.322
PPHRIRLLFACSP [R5I]	1.3
PPHRRRCLFACSP [L7C]	0.459

Further values, each from its own experiment
Substance	target	assay	test system	setting	how to read	endpoint	value
PhoQ, residues 284 288 289 292 302 303 SLGVVW	PhoP, residues 12 14 15 18 19 SHWTV (Escherichia coli, UniProt P23836)	Sort-seq, refers to: YFP reporter	E. coli	PhoQ-PhoP variant library, with: 10 µM Mg2+	baseline: high Mg2+ state, higher = stronger signaling	fold induction	28.8

A few entries again (block 1):
Sequence	bound/input enrichment [ratio]
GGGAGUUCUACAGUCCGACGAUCCUCACCUUCCUUCGAAUUCGCUCCAAGAAAAAUGAAAUUAUGGUUGCACCAGAUAAAGACUAUUUCCUGAUUGUGAUUCAGAAUCCAACCGAAUAAGCCACUCUCUUGGCUCCCUGUGUCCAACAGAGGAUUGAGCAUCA	0.228
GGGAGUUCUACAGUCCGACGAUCCUAAUCGUGUCAGCAGAAGCACUUACUAUGAAAUCAUUUUUUUAAAGAAAUCUGCACAGUAGAUUUUUACAUUGAGCUGAGAUGAAUAUGCCUUGAAAAUAAUAUAAGUGUGAAAUUGUUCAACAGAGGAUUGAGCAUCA	0.424
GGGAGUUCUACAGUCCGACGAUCAUUGAGAACAGCUCUCCAAAUAGGAAUAGUAGUAAAAAAAAUAAGCAAAAUGAUAUUUGUAUAGAAAAAACAGAAGUUAAAUCAUGUAAAGUAAAUGCUGCCAACCUUCCAGGUCCUAAACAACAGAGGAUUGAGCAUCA	172
